Published values gathered from unrelated publications.
Protocols differ between the studies behind these lines. Numbers after ± are the reported error.

O=C(c1ccc(F)cc1)C1CCN(C2Cc3c(cccc3OCC[18F])CC2O)CC1 (single isomer, unassigned; (-))  tissue uptake (Sprague-Dawley rat, male, bone; intravenous, dose not given, 5 min): 0.426 ± 0.086 %ID/g
O=C(O)CC[C@H](NC(=O)O[C@@H](CCCCNC(=O)c1ccc([18F])cc1)C(=O)O)C(=O)O  tissue uptake (mouse, PC-3 PIP/flu xenografts, kidney; 90 min): 1.51 ± 0.22 %ID/g
N=C(N)NCc1ccc(C(=O)NCCCC[C@H](NC(=O)CCCCCCC(=O)NCCCC[C@H](NC(=O)N[C@@H](CCC(=O)O)C(=O)O)C(=O)O)C(=O)O)cc1[211At]  tissue uptake (SCID mouse, PC-3 xenografts, brain; 1 h): 0.08 ± 0.02 %ID/g
COc1cc(C(=O)NCCOCCOCCOCCNC(=O)c2ccc([18F])nc2)ccc1NC(=O)C1NC(CC(C)(C)C)C(C#N)(c2ccc(Cl)cc2F)C1c1cccc(Cl)c1F (stereo not drawn)  tissue uptake (athymic male mice, HepG2 xenograft, small intestine; 4 h): 1.89 ± 0.79 %ID/g
CN[C@](C)(C[18F])C(=O)O  tissue uptake (SCID mouse U87 xenograft, lung; 120 min, post injection): 1.5 ± 0.2 %ID/g
CCCC[C@H](NC(=O)CCOCCOCCNC(=O)CN1CCN(CC(=O)O)CCN(CC(=O)O)CCN(CC(=O)O)CC1)C(=O)N[C@H]1CC(=O)NCCCC[C@@H](C(N)=O)NC(=O)[C@H](Cc2c[nH]c3ccccc23)NC(=O)[C@H](CCCNC(=N)N)NC(=O)[C@@H](Cc2ccccc2)NC(=O)[C@H](Cc2c[nH]cn2)NC1=O [gallium-68 labelled]  tissue uptake (C57BL/6J mice male B16-F10 tumour, lungs; 1 h post injection, unblocked): 0.6 ± 0.3 %ID/g
COc1ccc(C)cc1NC(=O)OC1CC2CCCC(C1)N2Cc1ccc(CC[18F])cc1 (stereo not drawn)  tissue uptake (BALB/c mice, EMT6 tumour, muscle; 2 h): 1.62 ± 0.27 %ID/g
N=C(N)NCc1ccc(C(=O)NCCCC[C@H](NC(=O)CCCCCCC(=O)NCCCC[C@H](NC(=O)N[C@@H](CCC(=O)O)C(=O)O)C(=O)O)C(=O)O)cc1[131I]  tissue uptake (SCID mouse, PC-3 xenografts, liver; 1 h): 5.16 ± 3.81 %ID/g
COc1cc2ccnc(Cc3ccc(O[11CH3])c(OC)c3)c2cc1OC  tissue uptake (Sprague-Dawley rats, testes; intravenous, 0.08333 h): 0.288 ± 0.035 %ID/g
COc1cc2ncnc(Oc3cccc(N[11C](=O)Nc4cc(C(C)(C)C(F)(F)F)on4)c3)c2cc1OC  tissue uptake (Balb/c nude mouse, female, A375 melanoma xenograft, small intestine; 6.6 MBq, 30 min): 33.8 ± 1.23 %ID/g
C[C@]12CC[C@H](OCC[18F])C[C@H]1CC[C@@H]1[C@@H]2CC[C@]2(C)[C@@H](c3ccc(=O)oc3)CC[C@]12O  tissue uptake (micro-PET; BALB/c nude mice, HepG2 xenograft, bladder; intravenous, 7.4 MBq, 120 min): 15.8 ± 1.9 %ID/g
N=C(N)NCc1ccc(C(=O)NCCCC[C@H](NC(=O)N[C@@H](CCC(=O)O)C(=O)O)C(=O)O)cc1[211At]  tissue uptake (SCID mouse, PC-3 xenografts, lungs; 1 h): 3.29 ± 0.56 %ID/g
CCNc1cc2[o+]c3cc(NCC)c(C)cc3c(-c3ccccc3C(=O)OCCOCC[18F])c2cc1C  tissue uptake (rat, mandibular gland; 15 min): 1.74 ± 0.5 %ID/g
C=Cc1cc(O)cc2nc(-c3ccc(O)c([76Br])c3)oc12  tissue uptake (female C57BL/6 mouse, blood; 1 h, low dose): 0.4 ± 0.12 %ID/g
N=C(N)NCc1ccc(C(=O)NCCCC[C@H](NC(=O)N[C@@H](CCC(=O)O)C(=O)O)C(=O)O)cc1[131I]  tissue uptake (SCID mouse, PC-3 xenografts, thyroid; 4 h): 0.2 ± 0.1 %ID/g

Some of these lines once more:
C[C@]12CC[C@H](OCC[18F])C[C@H]1CC[C@@H]1[C@@H]2CC[C@]2(C)[C@@H](c3ccc(=O)oc3)CC[C@]12O  tissue uptake (micro-PET; BALB/c nude mice, HepG2 xenograft, bladder; intravenous, 7.4 MBq, 120 min): 15.8 ± 1.9 %ID/g
O=C(c1ccc(F)cc1)C1CCN(C2Cc3c(cccc3OCC[18F])CC2O)CC1 (single isomer, unassigned; (-))  tissue uptake (Sprague-Dawley rat, male, bone; intravenous, dose not given, 5 min): 0.426 ± 0.086 %ID/g
